Results of several laboratories.
Each numbered part is a random draw from the data of one study; scales do not carry over between parts.

Study 1 — method: RNA Bind-n-Seq; form: RNA; matrix: in vitro; concentration: 200 nM; notes: whole 134-nt RNA, ends assumed; added: 150 mM KCl; reference: input library; direction: higher = stronger binding
Target: Fragile X messenger ribonucleoprotein 1, C-terminal low-complexity region (Fmr1, Mus musculus, UniProt P35922)
Constant ends, left off below: GGGAGUUCUACAGUCCGACGAUC … UGGAAUUCUCGGGUGUCAAGG
Strand	log2 enrichment
UGGGAGGUGGAUUUUGUUUAUUUUUUUAGCUCAUUUCCACGGGUGGGAAUUUUUUUUUAAUAUGUGUCAUGAAUAAAGUUGUUUUUGAAA	0.0993
AAGUCCUGUGCUACACAUCGUAUGUACCGAAUCGGGGUUUUUGGGGAGGGGAGGGGAAAGUAUUAUGUUACGCCGUUCGGAUCUGCACUU	0.944
GUCCUGUGCUACACAUCGUAUGUACCGAAUCGGUUUUUGGAAAAAAAGGUUUUUUUGGAAAGUAUUAUGUUACGCCGUUCGGAUCUGCAC	-1.03
CCUCAAGUCCUGUGCUACACAUCGUAUGUACCGAAUCGGGGCGGGCGGGCGGGAAAGUAUUAUGUUACGCCGUUCGGAUCUGCACUUCCA	0.895
UCAAGUCCUGUGCUACACAUCGUAUGUACCGAAUCGGGCCCGGCCCGGGCCCGGAAAGUAUUAUGUUACGCCGUUCGGAUCUGCACUUCC	-0.659
AGUCCUGUGCUACACAUCGUAUGUACCGAAUCGGGUUUGGGUUUUUUUGGGUUUGGGAAAGUAUUAUGUUACGCCGUUCGGAUCUGCACU	0.616
CCUCAAGUCCUGUGCUACACAUCGUAUGUACCGAAUCGGAGGGAGGGGAGGGAAAGUAUUAUGUUACGCCGUUCGGAUCUGCACUUCCAG	0.91
AAGUCCUGUGCUACACAUCGUAUGUACCGAAUCGGGUUUGGGAGGGUUUUUUUGGGAAAGUAUUAUGUUACGCCGUUCGGAUCUGCACUU	0.716

Study 2 — read-out: enzyme activity; action: inhibitor; concentration: 20 µM; notes: primary screen
Target: Replicase polyprotein 1ab, main protease (rep, Severe acute respiratory syndrome coronavirus 2, UniProt P0DTD1)
SMILES	inhibition [%]
C=CC(=O)N1CCN(C(=O)CNc2cc(I)c(Cl)cc2O)CC1	39.6
NC(=S)N/N=C/c1coc2ccccc2c1=O	76
Cc1ccc2c(c1)C1CN(C)CCC1N2 (centres unmarked)	37.9
O=c1cccc2cc(O)c(O)c(O)c2c1O	101

Study 3 — method: competition protein-binding microarray; form: double-stranded DNA, one strand shown; matrix: in vitro; concentration: 2 µM; added: Cbf1 competitor, 0.05 µM; direction: higher = stronger binding; constant ends, left off below: … GTCTTGATTCGCTTGACGCTGCTG
Target: Phosphate system positive regulatory protein PHO4, full length, GST-tagged (PHO4, Saccharomyces cerevisiae, UniProt P07270, residues 1-312)
Notes: whole 60-bp probe, lowest competitor level
Residues (chain): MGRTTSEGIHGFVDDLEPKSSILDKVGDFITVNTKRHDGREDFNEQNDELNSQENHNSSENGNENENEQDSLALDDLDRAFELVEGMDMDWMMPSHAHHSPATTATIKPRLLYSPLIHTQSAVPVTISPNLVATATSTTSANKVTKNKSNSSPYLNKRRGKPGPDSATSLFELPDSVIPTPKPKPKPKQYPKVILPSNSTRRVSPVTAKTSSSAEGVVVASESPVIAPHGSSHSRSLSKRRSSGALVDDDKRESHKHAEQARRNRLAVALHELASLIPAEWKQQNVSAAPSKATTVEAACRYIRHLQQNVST
Strand	fluorescence intensity
TTAGCTCTGCTGCATTTGCTGTTCGTTTAGTAAAAA	3570 a.u.
CTAACGAAGGTTTGTCACCCCACTTACAAGCCAAGT	3590 a.u.
GCCGTTTTGCTCCGGGTCGTGCCGACGTAAATCCAT	8390 a.u.
AGCTCTCCATTATTTTGAAGTTTTAGACCCTATAAT	2560 a.u.
ACCCTTTTCCCGAGTCACGTGCAAAGTGTAATAGTA	15200 a.u.
AAATTACTAAGTTGTCACGACACTTACCCCGTATGA	4900 a.u.
GTCTTGTCTCATTGCGAAGTGGGTGTCCCCACTTCA	4100 a.u.
CTAACGAAGGTTTGTCACGTGACTTACAAGCCAAGT	13900 a.u.

Study 4 — action: inhibitor; concentration: 20 µM
Target: Replicase polyprotein 1ab, nsp13 helicase (rep, Severe acute respiratory syndrome coronavirus 2, UniProt P0DTD1)
SMILES	inhibition
CCN(CC)CCc1nc(-c2ccccc2)no1	0%
Brc1c(Br)c(Br)c2n[nH]nc2c1Br	6.45%
O=C(O)CNC(=O)c1ccccc1	-1.69%
c1cn2cc(-c3ccc4cn[nH]c4c3)nc(Nc3ccc(N4CCOCC4)cc3)c2n1	4.84%
Cc1ccccc1C(=O)Nc1ccc(C(=O)N2CCCC(N(C)C)c3ccccc32)cc1 (centres unmarked)	6.38%
CC1(c2ccccc2)OC(C(=O)O)=CC1=O (centres unmarked)	2.94%
CC1(C)CCC[C@]2(C)[C@H]3CC(=O)O[C@]3(C)CC[C@@H]12	13.8%
CCCC(=O)N1CCCN(c2nc(N)c3cc(OC)c(OC)cc3n2)CC1	5.4%
NCC(=O)O	4.16%
CCN(CC)Cc1ccc2cc(COC(=O)Nc3ccc(C(=O)NO)cc3)ccc2c1	9.11%
COc1cc(-n2cnc3cc(-c4ccc(Cl)cc4)sc3c2=O)ccc1OCCN1CCCC1	5.37%
CNC(=O)Nc1ccc(-c2nc(N3CC4CCC(C3)O4)c3cnn(C4CCC5(CC4)OCCO5)c3n2)cc1	0.9%
CC1=C(/C=C/C(=C/C=C/C(C)=C/C(=O)O)c2ccc(C)cc2)C(C)(C)CCC1	26.5%
CCc1nc(-c2cccc(C)c2)c(-c2ccnc(NC(=O)c3ccccc3)c2)s1	7.95%
COc1cc(C[C@@H](CO)[C@H](CO)Cc2ccc(O)c(OC)c2)ccc1O	1.35%
O=C(O)CC(=O)C(=O)O	-2.85%
CN1C[C@@H]2c3ccccc3Oc3ccc(Cl)cc3[C@H]2C1 (racemic)	2.66%
CCCCCCNC(=O)Nc1ccc(S(=O)(=O)Nc2ccc(CCNC[C@H](O)COc3ccc(O)cc3)cc2)cc1	17.5%
O=C(Oc1ccccc1)c1ccccc1O	-1.64%
COc1cc2c(cc1O)C(CCc1ccc(Cl)cc1)N(C)CC2 (centres unmarked)	1.52%
COC1(C[S@@+]([O-])c2ccccc2)CCN(CCc2c[nH]c3ccc(F)cc23)CC1	5.53%

Study 5 — cell line: HEK-293T/ACE2; read-out: pseudovirus infection; organism: VSV pseudotyped with SARS-CoV-2 spike; concentration: concentration not given; reference: vehicle-treated
SMILES	GFP-positive cells [%]
CC1(C)CCC(CN2CCN(c3ccc(C(=O)NS(=O)(=O)c4ccc(NCC5CCOCC5)c([N+](=O)[O-])c4)c(Oc4cnc5[nH]ccc5c4)c3)CC2)=C(c2ccc(Cl)cc2)C1	4.48
Cc1[nH]c2ccccc2c1CCNCc1ccc(/C=C/C(=O)NO)cc1	43.5
Cc1ccc(-n2nccn2)c(C(=O)N2CCN(c3nc4cc(Cl)ccc4o3)CC[C@H]2C)c1	108

A few entries again (study 4):
SMILES	inhibition
COc1cc(-n2cnc3cc(-c4ccc(Cl)cc4)sc3c2=O)ccc1OCCN1CCCC1	5.37%
CNC(=O)Nc1ccc(-c2nc(N3CC4CCC(C3)O4)c3cnn(C4CCC5(CC4)OCCO5)c3n2)cc1	0.9%
CC1=C(/C=C/C(=C/C=C/C(C)=C/C(=O)O)c2ccc(C)cc2)C(C)(C)CCC1	26.5%
CCc1nc(-c2cccc(C)c2)c(-c2ccnc(NC(=O)c3ccccc3)c2)s1	7.95%
